Measured values from different studies.
± marks the error that the study gave.
PYR1: Abscisic acid receptor PYR1 (PYR1, Arabidopsis thaliana, UniProt O49686)
OPRK1: Kappa-type opioid receptor (OPRK1, Homo sapiens, UniProt P41145)
ADORA2A: Adenosine receptor A2a (ADORA2A, Homo sapiens, UniProt P29274)
CGAS catalytic domain; with DNA: Cyclic GMP-AMP synthase, catalytic domain; with DNA (CGAS, Homo sapiens, UniProt Q8N884)
GABA-A receptor; alpha-5/beta-3/gamma-2: GABA-A receptor; alpha-5/beta-3/gamma-2 (Homo sapiens, UniProt P18507+P28472+P31644)

With `O=C(Cc1cc(C2CC2)c(-n2cc(CNC(=O)c3cnc4ccccc4n3)nn2)c(C2CC2)c1)NC1(C(=O)O)CCCCC1` the EC50 was 144 ± 15 nM (PYR1; phosphatase activity recovery, antagonist; together with: HAB1, ABA 5000 nM).
The EC50 of `Cc1nn2c(N3CCN(CCO)CC3)cc(-c3ccccc3)nc2c1-c1ccccc1` is reported as 3100 ± 1200 nM (GTPase KRas (KRAS, Homo sapiens, UniProt P01116); intrinsic nucleotide exchange).
For `COc1cc(NC(=O)c2occc2C)ccc1/N=N/c1ccccc1Cl`, the EC50 was over 31600 nM (GRM4 (Homo sapiens, UniProt Q14833); activator).
`COC(=O)C1=C2Nc3ccccc3[C@@]23CCN2C[C@@](O)(C(C)=O)[C@@H]1C[C@H]23` has an EC50 of over 10000 nM (OPRK1; cAMP inhibition, agonist, HitHunter; CHO-K1; together with: forskolin).
`O=C1Nc2c(ccc(Cl)c2Cl)C1=NO` has an EC50 of 8.6 nM (KCNN4/CALM1 (Homo sapiens, UniProt O15554+P0DP23); ion current, activator, whole-cell patch clamp; HEK293; together with: 3 µM free calcium).
`CCCCC[C@H](O)/C=C/[C@H]1[C@H](O)CC(=O)[C@@H]1C/C=C\CCCC(=O)O` gave an EC50 of 1.91 nM (PTGER1 (Homo sapiens, UniProt P34995, Q298A); IP1 accumulation, agonist; AD293; EP1 Q298A mutant).
`Cc1cccc(C(=O)NCc2cn(-c3c(C4CC4)cc(CC(=O)NC4(C(=O)O)CCCCC4)cc3C3CC3)nn2)n1` gave an EC50 of 333 ± 79 nM (PYR1; phosphatase activity recovery, antagonist; together with: HAB1, ABA 5000 nM).
The EC50 of `COC(=O)C1=C2Nc3ccccc3[C@@]23CCN2C[C@@](O)([C@@H](C)O)[C@@H]1C[C@H]23` is reported as over 10000 nM (OPRK1; cAMP inhibition, agonist, HitHunter; CHO-K1; together with: forskolin).
The EC50 of `CCn1c(-c2nc3cc(C(=O)N4CCC[C@@H](N)C4)cc(OC)c3n2C)cc2cccnc21` is reported as over 31600 nM (ADORA2A; agonist, TR-FRET).
For `O=C(Nc1ccn(Cc2ccc(O)cc2C(F)(F)F)n1)c1c(F)cccc1F`, the EC50 was over 10000 nM (TRPV4 (Homo sapiens, UniProt Q9HBA0); ion channel activity, agonist; cells overexpressing TRPV4; human receptor).
The EC50 of `O=C(Cc1cc(C2CC2)c(-n2cc(CNC(=O)c3cc(Br)co3)nn2)c(C2CC2)c1)NC1(C(=O)O)CCCCC1` is reported as 157 ± 32 nM (PYR1; phosphatase activity recovery, antagonist; together with: HAB1, ABA 5000 nM).
With `Cc1nn(-c2nc3c(F)cc(F)cc3s2)c(O)c1C(c1ccccc1C(F)(F)F)c1c(C)nn(-c2nc3c(F)cc(F)cc3s2)c1O` the EC50 was 3200 ± 1200 nM (CGAS catalytic domain; with DNA; cGAS-DNA condensate disruption; concentration not given, together with: Cy3-labelled DNA).
`CCCCCCCC/C=C\CCCCCCCC(=O)NCCc1ccc(O)c(O)c1` has an EC50 of 270 ± 50 nM (Trpv1 (Mus musculus, UniProt Q704Y3, S511T); ion current, agonist, whole-cell patch clamp; 24 °C, S511T, +80 mV).
For `O=C(Cc1cc(C2CC2)c(-n2cc(CNC(=O)c3ccc4ccccc4n3)nn2)c(C2CC2)c1)NC1(C(=O)O)CCCCC1`, the EC50 was 126 ± 21 nM (PYR1; phosphatase activity recovery, antagonist; together with: HAB1, ABA 5000 nM).
`Cn1cc(-c2cnc(N)n3nc(-c4ccco4)nc23)ccc1=O` gave an EC50 of over 100000 nM (ADORA2A).
With `Cc1nn(-c2nc3c(F)cc(F)cc3s2)c(O)c1C(c1cccc(C(F)(F)F)c1)c1c(C)nn(-c2nc3c(F)cc(F)cc3s2)c1O` the EC50 was 4780 nM (CGAS catalytic domain; with DNA; cGAS phase separation, inhibitor).
`O=C(Cc1cc(C2CC2)c(-n2cc(CNC(=O)c3ccc4ccccc4c3)nn2)c(C2CC2)c1)NC1(C(=O)O)CCCCC1` gave an EC50 of 586 ± 104 nM (PYR1; phosphatase activity recovery, antagonist; together with: HAB1, ABA 5000 nM).
With `O=S(=O)(O)C1CCNCC1` the EC50 was 12000 nM (GABA-A receptor; alpha-5/beta-3/gamma-2; membrane potential, agonist, QP-DHM fluorescence; HEK293 expressing GABAA α5β3γ2).
`O=C(Cc1cc(C2CC2)c(-n2cc(CNC(=O)c3cnc(Br)s3)nn2)c(C2CC2)c1)NC1(C(=O)O)CCCCC1` has an EC50 of 160 ± 28 nM (PYR1; phosphatase activity recovery, antagonist; together with: HAB1, ABA 5000 nM).
`O=C(O)C1=CCNCC1` has an EC50 of 6000 nM (GABA-A receptor; alpha-5/beta-3/gamma-2; membrane potential, agonist, QP-DHM fluorescence; HEK293 expressing GABAA α5β3γ2).
The EC50 of `CCn1c(-c2nc3ccc(C(=O)N4CCCC(N)C4)cc3n2C)cc2ccccc21` (stereo not drawn) is reported as over 100000 nM (OPRK1; G protein activation, agonist, GTPγS binding).

Excerpt of the above:
The EC50 of `CCn1c(-c2nc3cc(C(=O)N4CCC[C@@H](N)C4)cc(OC)c3n2C)cc2cccnc21` is reported as over 31600 nM (ADORA2A; agonist, TR-FRET).
